Results collected from several papers.
A part holds a random share of what one study measured. Substitutions count along the parent as printed.

Set 1
Target: Histone acetyltransferase KAT6A, winged helix 2, GST fusion (KAT6A, Homo sapiens, UniProt Q92794, residues 85-181)
Technique: protein binding microarray
Molecule type: double-stranded DNA, one strand shown
Matrix: in vitro
Tested at: not given
Notes: 8-mer, flanks averaged, mean of 2 arrays, mostly near background
Relative to: not given
Reading: higher = stronger binding
Residues (chain): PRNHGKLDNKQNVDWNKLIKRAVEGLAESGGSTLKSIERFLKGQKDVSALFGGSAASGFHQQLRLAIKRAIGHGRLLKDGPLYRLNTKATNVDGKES
Sequence	E-score
ACTGAGCG	0.0789
AGTGTACC	-0.208
GGTGCCAA	0.121
ATCTGCGA	0.0124
AGAGGAGA	-0.127
GCTAACTA	0.0443
ATTGACGA	-0.0218
CAAACAGC	0.0412
CCGACGCC	0.0106
GATGTTCC	0.0198
CATTCTAC	-0.118
TGACTAAA	0.0605
GTACGCTA	-0.0929
ACATGTTC	-0.238
CAGAGCTG	0.0544
GCACAACC	0.0206
GGCTGCAA	0.0432
CTCCGCTA	-0.16
CCCTTCTC	-0.0412
AGGACAAT	-0.12
AAAACCCA	0.122
AGAGTCGG	-0.0136
ACAAATGT	-0.01
CCACAGAC	-0.0474
TTTACAAA	0.115

Set 2
Target: Interferon regulatory factor 3, full length, phosphomimetic (IRF3, Homo sapiens, UniProt Q14653, residues 1-427, S386D/S396D/S398D/S402D/T404D/S405D)
Technique: protein-binding microarray
Molecule type: double-stranded DNA, one strand shown
Matrix: in vitro
Tested at: 2540 nM top
Notes: 60-bp whole probe
Together with: salmon DNA 0.4 mg/ml
Relative to: random background probes
Reading: higher = stronger binding
Shared flanks, not repeated: GCCTAGCAC … GTCTTGATTCGCTTGACGCTGCTG
Residues (chain): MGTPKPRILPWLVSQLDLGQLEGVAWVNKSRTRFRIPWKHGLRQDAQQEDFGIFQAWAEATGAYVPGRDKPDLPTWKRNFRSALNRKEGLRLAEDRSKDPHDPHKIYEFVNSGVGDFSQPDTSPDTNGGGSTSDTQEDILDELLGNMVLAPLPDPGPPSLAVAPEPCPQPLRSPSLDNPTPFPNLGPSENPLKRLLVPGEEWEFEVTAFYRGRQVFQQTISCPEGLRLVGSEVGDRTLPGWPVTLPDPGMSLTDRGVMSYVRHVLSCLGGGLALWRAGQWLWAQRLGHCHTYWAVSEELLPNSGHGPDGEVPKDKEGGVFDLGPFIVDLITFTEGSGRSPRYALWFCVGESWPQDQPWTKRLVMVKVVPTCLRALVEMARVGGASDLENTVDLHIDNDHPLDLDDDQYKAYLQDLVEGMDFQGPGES
Sequence	fitted relative affinity [z-score]
GACGGTCTTGGTCTCGGGACGTGCTAG	0.000188
TTAGGTTTCGGTTCCGGTTCGTGCTAG	10.3
TCATTCATGAAATTTTAGACTGTGCTA	0.332
GGCTTTGACTCTTTCTGTCAGTGCTAG	0.0318
GGATGTGTCTTAAATAGGGCAGTGCTA	0.193
GACGGACTGCTGATCCTGACGTGCTAG	-0.489
TCACTTTTCATTACTGCACTGTGCTAG	2.64
GACGATATCGGGACTGTAGACGTGCTA	0.242
GGCGATCTCAGTTTCGAGACGTGCTAG	2.08
GACGATTCCTGTTTCGAGACGTGCTAG	2.7
TTCGGTATCGGTCTCGGTTAGTGCTAG	4.9
TTAGGACTGGGGTATAGGTTAGTGCTA	-0.801
ACCCATTGAGATTTTCATTATGTGCTA	0.703
GACGGATTCGGGACTGGGGACGTGCTA	0.707
AAATTTTGATGAACTTAAGCGTGCTAG	-0.204
TTAGGTTCCCTTTTCCTCTAGTGCTAG	7.57
TTAGGTCACGGACTGGGTTAGTGCTAG	-0.772
ACGAGTTTCTATTTTCTGAAGTGCTAG	4.08
CTTCCTTTACTTTCTTTTTTGTGCTAG	4
TTAGGACTGAACTTTCGGTTAGTGCTA	1.67
TTAGGTTTCCTTATCCTTCAGTGCTAG	7.97
TTAGATCTCAGTTTTGATTAGTGCTAG	1.05
GGCGATATCAGTTTCGAGACGTGCTAG	3.53
ATTGAGAATTCCACTCCGCTGTGCTAG	-0.0688
TCATATTCAGGTATATAACTGTGCTAG	1.05

Set 3
Target: ABI1, truncated, D143A, DHFR fusion (Arabidopsis thaliana)
Technique: DHFR PCA, deep sequencing
Matrix: yeast
Notes: methotrexate growth selection, single substitutions
Together with: (+)-ABA 0.0091 µM
Relative to: wild-type fitted maximum
Reading: higher = stronger binding
Parent: PYL1, truncated, DHFR fusion (Arabidopsis thaliana); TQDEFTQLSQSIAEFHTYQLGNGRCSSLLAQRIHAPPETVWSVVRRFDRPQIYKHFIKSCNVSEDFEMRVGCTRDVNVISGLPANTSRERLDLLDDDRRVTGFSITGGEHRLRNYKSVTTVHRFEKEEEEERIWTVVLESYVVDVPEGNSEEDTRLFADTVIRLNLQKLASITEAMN; partner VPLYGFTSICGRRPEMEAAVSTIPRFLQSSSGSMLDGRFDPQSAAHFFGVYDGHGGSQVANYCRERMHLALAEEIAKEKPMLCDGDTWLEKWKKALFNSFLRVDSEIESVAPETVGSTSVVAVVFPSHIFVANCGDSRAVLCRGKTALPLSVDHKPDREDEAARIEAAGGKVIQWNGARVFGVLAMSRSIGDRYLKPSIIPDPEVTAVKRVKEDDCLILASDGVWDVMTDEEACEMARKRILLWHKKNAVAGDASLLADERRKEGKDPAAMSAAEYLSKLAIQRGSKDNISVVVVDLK
Substitution	relative binding score
K126C	49.7%
V143R	-2.93%
L164C	5.81%
E64V	7.31%
E129S	41.7%
F5D	5.35%
R24S	6.63%
N165I	0.379%
A84R	8.47%
E4C	7.27%
R74H	-2.96%
S171C	21.3%
D96Q	-1.32%
T135Y	-13.9%
E14H	7.89%

Set 4
Target: Sal-like protein 4, full length isoform B (SALL4, Homo sapiens, UniProt Q9UJQ4-2, residues 1-616)
Technique: universal PBM
Molecule type: double-stranded DNA, one strand shown
Matrix: in vitro
Tested at: not given
Notes: 8-mer, flanks averaged, mean of replicates
Reading: higher = stronger binding
Sequence	E-score
TCATAGAA	0.219
GCATTTAA	0.109
AATAGACA	0.121
AAATATTT	0.465
CGTTGGGC	-0.291
CCAGCCAC	-0.111
ACATAGCT	0.0936
GTAAGTCA	0.0557
CTAGTTAC	-0.0719
ACTCACCG	-0.172
GAGCTAAA	-0.03
CGTCGGGA	-0.142
ACTGAAGG	-0.0852
CAAGGGCA	-0.184
CCGTGATC	-0.188
GCCCACAA	-0.167
CTAACGGA	0.00375
ATCGTTTG	0.17
GCTTAACA	0.104
ACAATACG	0.141
AAAGGAGA	0.00487
CGAAACGA	-0.0598
TGGGGGAA	-0.151
GATAGGAC	-0.144
ATGAGTTC	0.0909

Set 5
Target: CCNA2, cyclin fold, Cln2 fusion (human)
Technique: yeast growth competition, sequencing
Matrix: yeast
Notes: strong parent motif
Relative to: not given
Reading: higher = stronger binding
Parent: CDKN1A docking peptide (human); SKACRRLFGPVDS
Substitution	normalised enrichment score
SKACRRQFGPVDS [L7Q]	0.723
SKACRRLFGPADS [V11A]	6.17
SKACRRKFGPVDS [L7K]	0.747
SKAPRRLFGPVDS [C4P]	1.73
SKACRRLFGPVDA [S13A]	5.91
SKACRRLFGPVNS [D12N]	5.43
SKACRRLFHPVDS [G9H]	5.58
SKACRALFGPVDS [R6A]	4.33
SKAIRRLFGPVDS [C4I]	3.57
SKACRRLFGPKDS [V11K]	5.53
SKACRRLAGPVDS [F8A]	0.441
SKCCRRLFGPVDS [A3C]	5.76
SKACTRLFGPVDS [R5T]	1.49
SKACRRLFKPVDS [G9K]	5.18
SKACRPLFGPVDS [R6P]	1.04
SKTCRRLFGPVDS [A3T]	4.87

Set 6
Target: RNA binding protein fox-1 homolog 2, RRM domain, GST-SBP tag (RBFOX2, Homo sapiens, UniProt O43251-10, residues 100-194)
Technique: RNA Bind-n-Seq
Molecule type: RNA
Matrix: in vitro
Tested at: 365 nM
Notes: natural RNA segment, single round, ends assumed
Relative to: no-protein control
Reading: higher = stronger binding
Shared flanks, not repeated: GGGAGUUCUACAGUCCGACGAUC … UGGAAUUCUCGGGUGCCAA
Construct (chain): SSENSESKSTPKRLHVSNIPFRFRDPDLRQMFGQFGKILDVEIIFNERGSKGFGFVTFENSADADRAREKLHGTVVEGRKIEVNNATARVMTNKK
Sequence	RBNS enrichment (R)
UGCUCAAGGAAUCCACAUCUGGUGGGUAGGAGAAGAGAGACCCUGUUGCUAUAGUACAGAGACAAGUAUAUCUCUGCCCCAGCUCCAGUCUUGCUGGAUCCUCCUCCAGC	0.265
UCUACCCGCCUUUCCUGACUCUGUGUUUUAUAUAUAUUAUAUAUAAAUAUAUAUUGUGUACGGCCGCCGGCCGGCGGCUCGAGGCACGCCCGGUGGUGGGGGGUGGGCAG	0.63
AAAUAUGCAAGGUUUGUUCUAUAUUAUGAUCACUAUUAAUCUUUUAUCACUCAAUUUUAAAACUAGUAAUUUACUUUGGCUCAGAAAUGUACUAUAUUUAUAAUUAUUGU	3.09
CUUCACCCUGUCCCCAGACGGGGGAACCCGUGGGUCAGGCGUGGAUAAGCCUGCGAGAAUACACCCUUUCUCCAUUCACUUUCUAUUUACAAAUUAGGAAAGCAACCUUU	0.279
CAUAGACCUGAGAGGAGCAGAGAAGGAACACUACAUUCUCUAACGUUCUGUUAACCUUUGUACCAAAUAGCAAUAAAAACGAGUGGGAGCCGUUGGGCGGUGCGCCAGAG	0.359
AACUCCCUGAAAUCUGGAAUCAGGGUGGAAACAGCCUGUUUUUCCCAUUUAAACAGGAGUCCUCUUCAACUUCAGCUGAUUACAAUAACAAAAGGCGGAAUUGAAUUGUG	0.199
UGCAUUCCAAGGAAAUGGCAUAUGGAUUAACUGUAAGAAAUGAAAUAAGUAAUUUAUUGUAAGACAACAUCAAGCCAUGGAAACUUGGCAGAAGAUUCAAAGCAGCUUAA	0.508
AAGUUGACCAUUCCAUGUCUCAAGUAUGAGGACCCAGGGACCCCAGGGAAUCUGUUUUCUAUUUACAAGUCUGACAUCUUAAUCCCCACUGCCAAAAUGCUCCGAAAUCU	0.428
AGCAAGACUCAAAGAGGCAGAGGUUUUGUUCUCAAAUAUUUUUUAAUAAAUAGACGAAACCACGAAACCACUAGACUGAUGGCAGCAAACUAAGGUCAGAUGAGAGGGGA	0.371
GGGCUCAGUCUUUUGAGGUAAGUGGAAUUAGAGGGCCUUGCUUCUCUUCUUUCCAUUCUUCUUGCUACACCCCUUUUCCAGUUGCUGUGGACCAAUGCAUCUCUUUAAAG	0.54
GUGAGUGUGUAGCUGGACACCUUAGAGGACCCUAUGAAAUUGGAUAUGGAGACUGAUUUGGUGGGAAAAAACCUGUUACUUUCCAGUCACCCCAGGUUCUGACUUUACCU	0.342
GGGGAAAAAUGAAAUUAUAAUGCAUUUGUAUUUCCAUUUCUUGCAAAUAAAUAUUUUUCUUAGUCAAUGUUGCCUGGUCUUUAAAUCCUGACAACCUGGUUUCAAAGGCA	0.427

Repeated from above (set 6):
Sequence	RBNS enrichment (R)
GGGCUCAGUCUUUUGAGGUAAGUGGAAUUAGAGGGCCUUGCUUCUCUUCUUUCCAUUCUUCUUGCUACACCCCUUUUCCAGUUGCUGUGGACCAAUGCAUCUCUUUAAAG	0.54
AAAUAUGCAAGGUUUGUUCUAUAUUAUGAUCACUAUUAAUCUUUUAUCACUCAAUUUUAAAACUAGUAAUUUACUUUGGCUCAGAAAUGUACUAUAUUUAUAAUUAUUGU	3.09
UGCAUUCCAAGGAAAUGGCAUAUGGAUUAACUGUAAGAAAUGAAAUAAGUAAUUUAUUGUAAGACAACAUCAAGCCAUGGAAACUUGGCAGAAGAUUCAAAGCAGCUUAA	0.508
UCUACCCGCCUUUCCUGACUCUGUGUUUUAUAUAUAUUAUAUAUAAAUAUAUAUUGUGUACGGCCGCCGGCCGGCGGCUCGAGGCACGCCCGGUGGUGGGGGGUGGGCAG	0.63
CAUAGACCUGAGAGGAGCAGAGAAGGAACACUACAUUCUCUAACGUUCUGUUAACCUUUGUACCAAAUAGCAAUAAAAACGAGUGGGAGCCGUUGGGCGGUGCGCCAGAG	0.359
CUUCACCCUGUCCCCAGACGGGGGAACCCGUGGGUCAGGCGUGGAUAAGCCUGCGAGAAUACACCCUUUCUCCAUUCACUUUCUAUUUACAAAUUAGGAAAGCAACCUUU	0.279
GGGGAAAAAUGAAAUUAUAAUGCAUUUGUAUUUCCAUUUCUUGCAAAUAAAUAUUUUUCUUAGUCAAUGUUGCCUGGUCUUUAAAUCCUGACAACCUGGUUUCAAAGGCA	0.427
AGCAAGACUCAAAGAGGCAGAGGUUUUGUUCUCAAAUAUUUUUUAAUAAAUAGACGAAACCACGAAACCACUAGACUGAUGGCAGCAAACUAAGGUCAGAUGAGAGGGGA	0.371
